# Results of several laboratories.
# Numbered parts are unrelated; each lists some results of a single study. Changes are numbered by the printed parent chain.

# Sample 1 — method: protein-binding microarray; molecule type: double-stranded DNA, one strand shown; sample: in vitro; concentration: 2200 nM top; notes: 60-bp whole probe; added: salmon DNA 0.4 mg/ml; reference: random background probes; direction: higher = stronger binding; shared flanks, not repeated: GCCTAGCAC … GTCTTGATTCGCTTGACGCTGCTG
# Target: Interferon regulatory factor 7, full length, phosphomimetic (IRF7, Homo sapiens, UniProt Q92985, residues 1-503, S471D/S472D/S475D/S476D/S477D/S483D/S484D/S487D)
# Target sequence (chain): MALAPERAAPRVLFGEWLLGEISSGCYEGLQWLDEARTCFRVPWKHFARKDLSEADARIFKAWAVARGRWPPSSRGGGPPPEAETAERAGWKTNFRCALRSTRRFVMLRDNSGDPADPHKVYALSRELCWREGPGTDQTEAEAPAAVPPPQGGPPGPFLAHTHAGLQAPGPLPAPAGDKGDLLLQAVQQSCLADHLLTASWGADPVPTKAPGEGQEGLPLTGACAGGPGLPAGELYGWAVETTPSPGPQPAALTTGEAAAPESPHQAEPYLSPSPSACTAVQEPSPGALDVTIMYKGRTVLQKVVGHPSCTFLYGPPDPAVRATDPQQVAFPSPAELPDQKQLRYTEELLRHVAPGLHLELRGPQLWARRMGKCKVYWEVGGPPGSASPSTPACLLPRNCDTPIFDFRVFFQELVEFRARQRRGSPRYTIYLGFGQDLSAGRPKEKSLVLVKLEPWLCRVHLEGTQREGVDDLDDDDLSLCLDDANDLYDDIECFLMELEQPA
Strand,fitted relative affinity
TTAGGTTTCGACTTTCGTTTAGTGCTA,10.2 z-score
GACAGTATCGGGTTTCGGGACGTGCTA,2 z-score
TTAGGCCTCGGTATCGGTTAGTGCTAG,0.226 z-score
TTAGATTTCGGGTTTCGATTGGTGCTA,7.44 z-score
GACGGTTTCCCTTCCCTGACGTGCTAG,4.22 z-score
GACGGTACCGGGACTGGGGACGTGCTA,-0.575 z-score
CATCCTGAGTCAAGTCAAGTGTGCTAG,0.516 z-score
TTAGATTTCAGTTGCGATTAGTGCTAG,1.35 z-score

# Sample 2 — method: RNA Bind-n-Seq; molecule type: RNA; sample: in vitro; concentration: 20 nM; notes: 6-mer, flanks averaged, single round; added: 150 mM LiCl; reference: input library; direction: higher = stronger binding
# Target: TAR DNA-binding protein 43, full length, His tag (TARDBP, Homo sapiens, UniProt Q13148, residues 1-414)
Strand,6-mer enrichment (R)
AGGGGG,1.45
CGCCUU,0.991
AGUGUC,0.99
UUACGC,0.898
UAUUAC,0.941
GUCGUG,1.14
ACCCUA,0.933
CCGUUC,0.875

# Mixed results
# P1: PafA, mature enzyme, eGFP fusion (Elizabethkingia meningoseptica, UniProt Q9KJX5); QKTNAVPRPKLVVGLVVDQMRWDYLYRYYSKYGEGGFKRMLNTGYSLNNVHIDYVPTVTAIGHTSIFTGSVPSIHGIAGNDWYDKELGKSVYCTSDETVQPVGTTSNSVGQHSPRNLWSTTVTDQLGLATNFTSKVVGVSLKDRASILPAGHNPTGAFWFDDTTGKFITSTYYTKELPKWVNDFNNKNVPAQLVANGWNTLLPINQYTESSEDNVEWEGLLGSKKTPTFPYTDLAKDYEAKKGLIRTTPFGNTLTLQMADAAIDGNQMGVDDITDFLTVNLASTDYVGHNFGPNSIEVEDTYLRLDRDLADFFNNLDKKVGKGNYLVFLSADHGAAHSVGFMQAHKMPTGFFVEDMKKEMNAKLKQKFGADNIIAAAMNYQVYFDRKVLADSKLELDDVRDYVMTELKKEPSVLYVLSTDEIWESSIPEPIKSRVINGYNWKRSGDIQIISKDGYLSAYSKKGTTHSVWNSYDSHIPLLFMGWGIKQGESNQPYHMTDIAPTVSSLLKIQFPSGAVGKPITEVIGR
Molecule,tested on,assay,system,conditions,scale,measurement,value
"DDX10 (Homo sapiens, UniProt Q13206)","DDX18 (Homo sapiens, UniProt Q9NVP1)",cross-linking MS,cell fractions,added: DSSO,,cross-linked residues,K453 to K577
P1 P203V,"tungstate, free oxyanion",microfluidic competitive inhibition,"in vitro, cell-free expressed","not given, derived from inhibition constants, unchanged parent 2230 nM",lower = stronger binding,oxyanion analog dissociation constant,1.98 µM
"GAPDH (Homo sapiens, UniProt P04406)","UBE4A (Homo sapiens, UniProt Q14139)",cross-linking MS,cell fractions,added: DSSO,,cross-linked residues,K5 to S1017
"FARSB (Homo sapiens, UniProt Q9NSD9)","FARSA (Homo sapiens, UniProt Q9Y285)",cross-linking MS,,hits only,,interaction screen,cross-linked
"TMED10 (Homo sapiens, UniProt P49755)","TMED2 (Homo sapiens, UniProt Q15363)",cross-linking MS,cell fractions,added: DMTMM,,cross-linked residues,K143 to E131

# For quick reference, copied from above (sample 1):
Strand,fitted relative affinity
TTAGGTTTCGACTTTCGTTTAGTGCTA,10.2 z-score
